Results pooled from the literature.
± marks the error that the study gave.
Target: Kappa-type opioid receptor (OPRK1, Homo sapiens, UniProt P41145)

Structure (SMILES) | assay | system | conditions | how to read | endpoint | value
N[C@H](C(=O)N1CCCC1)C1CCN(c2nccc3c(-c4ncc(Cl)cc4Cl)cccc23)CC1 | functional response, agonist |  | 10 µM |  | response | 60%
CN(C)[C@H]1COC[C@H]2NCCN(C(=O)Cc3ccc(Cl)c(Cl)c3)[C@@H]21 (relative stereo) | agonist |  | 0.3333 h |  | Emax | 71%
CCc1nnc(-c2c(OC)cc(-c3cnc4cc(-c5cnn(C)c5)ccn34)cc2OC)o1 | specific binding, agonist, radioligand binding |  | 10 µM | relative to: control specific binding | inhibition | 6%
CN1CC[C@]23c4c5ccc(O)c4C[C@H]2[C@@H](O)C=C[C@H]3[C@H]1C5 | receptor activation, agonist, cell-based |  |  |  | Emax | 76 ± 5%
C/C(=N\OCCCN1CCCCC1)c1ccc(C(F)(F)F)cc1 | antagonist, cAMP |  | 10 µM |  | inhibition | 7.57%
CN[C@@H]1[C@H](O)[C@H](NC)[C@H]2O[C@]3(O)[C@H](O[C@@H]2[C@H]1O)O[C@H](C)C[C@H]3NC(=O)Cc1ccc(Cl)cn1 | ligand displacement, radioligand |  | 10 µM |  | inhibition | -19%
O=C(Cc1ccc(Cl)c(Cl)c1)N1CCN(Cc2ccon2)[C@@H]2COC[C@H](N3CCCC3)[C@H]21 (single isomer, unassigned) | β-arrestin-2 recruitment, agonist | U2OS | 1.5 h | relative to: U-69593 maximal response | Emax | 75 ± 40.5%
CCN(CC)CCOc1ccc(-c2nnn(Cc3ccc(OC)cc3)c2N)cc1 | radioligand binding | HEK293 | 10 µM, safety profiling |  | inhibition | 7.52%
O=C(Cc1cccc(Cl)c1)N1CCN[C@@H]2COC[C@H](N3CCCC3)[C@H]21 (relative stereo) |  |  | concentration not given |  | loss of binding affinity | 4 to 8 fold
Cc1cc(-c2ccc3ccccc3c2)nnc1NCCN1CCN(C)CC1 | antagonist |  | 10000 nM | relative to: control | activity | 4%
O=C(Cc1ccc(Cl)c(Cl)c1)N1CCNC2COCC(N3CCCC3)C21 (stereo not drawn) | agonist |  | 0.3333 h |  | Emax | 96%
Cc1cc(Nc2nc(C[C@@]3(C(=O)O)CCN(Cc4cccc(Cl)c4F)[C@H](C)C3)cc(C)c2F)[nH]n1 | inhibitor |  | 10 µM |  | inhibition | 1.17%
